# Results of several laboratories.
# Every numbered part comes from another study and shows a few of its results, in no order. Changes are numbered by the printed parent chain.

# Series 1 — method: RNA Bind-n-Seq; molecule type: RNA; matrix: in vitro; concentration: 200 nM; setting: whole 134-nt RNA, ends assumed; added: 150 mM KCl; reference: input library; direction: higher = stronger binding
# Target: Ras GTPase-activating protein-binding protein 1, full length (G3BP1, Homo sapiens, UniProt Q13283)
# Sequence of UniProt Q13283 (whole entry, looked up): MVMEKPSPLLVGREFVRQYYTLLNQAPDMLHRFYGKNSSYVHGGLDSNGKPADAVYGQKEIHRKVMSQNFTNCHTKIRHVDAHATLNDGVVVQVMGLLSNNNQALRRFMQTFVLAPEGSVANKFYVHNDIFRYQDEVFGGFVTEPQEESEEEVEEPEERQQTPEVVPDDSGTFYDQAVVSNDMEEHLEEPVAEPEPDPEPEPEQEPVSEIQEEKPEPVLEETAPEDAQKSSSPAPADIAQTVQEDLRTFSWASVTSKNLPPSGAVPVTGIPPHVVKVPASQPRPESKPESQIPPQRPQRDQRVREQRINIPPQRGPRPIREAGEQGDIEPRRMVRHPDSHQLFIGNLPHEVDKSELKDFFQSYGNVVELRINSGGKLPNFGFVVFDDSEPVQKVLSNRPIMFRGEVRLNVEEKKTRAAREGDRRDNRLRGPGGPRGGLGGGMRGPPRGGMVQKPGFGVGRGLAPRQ
# All sequences stand within: GGGAGUUCUACAGUCCGACGAUC … UGGAAUUCUCGGGUGUCAAGG
Oligonucleotide,log2 enrichment
ACCAUGCAGGUGGGCAUCUUUGGGAAGUGGGGCAAGGGGGGGAUAGAGAGGGGGGUAACACUUUGGGAACAGGUGGUCCCAGGUCGUUUC,0.876
CCUCAAGUCCUGUGCUACACAUCGUAUGUACCGAAUCGGGGAGGGGAGGAGGAAAGUAUUAUGUUACGCCGUUCGGAUCUGCACUUCCAG,0.615
CCUCAAGUCCUGUGCUACACAUCGUAUGUACCGAAUCGGGGAGGGAGGGAGGAAAGUAUUAUGUUACGCCGUUCGGAUCUGCACUUCCAG,1.42
UGGCCCUGGUGGCAUGCGGGGAGGAAGCGGUGGCCUCAUGGAUCGUGGUGGUCCCGGUGGAAUGUUCAGAGGUGGCCGUGGUGGAGACAG,-0.000486
CCUGUGCUACACAUCGUAUGUACCGAAUCGGUUUUUUUGGGUUUUUUUGGUUUUUUUGGGAAAGUAUUAUGUUACGCCGUUCGGAUCUGC,-1.04
AAGUCCUGUGCUACACAUCGUAUGUACCGAAUCGGGUUUUGGGUUUUGGGUUUUGGGAAAGUAUUAUGUUACGCCGUUCGGAUCUGCACU,-0.118
UAACGUUAGAGGAGGAUCUGAUGGAUAUGGCAGUGGACGUGGAUUUGGGGAUGGCUAUAAUGGGUAUGGAGGAGGACCUGGAGGUGGCAA,0.372
AGUCCUGUGCUACACAUCGUAUGUACCGAAUCGGGUUUUUUUGGGUUUGGGUUUGGGAAAGUAUUAUGUUACGCCGUUCGGAUCUGCACU,-0.169
CAAGUCCUGUGCUACACAUCGUAUGUACCGAAUCGGAAAGGAAAAAGGUUUUUGGAAAGUAUUAUGUUACGCCGUUCGGAUCUGCACUUC,-1.33
GCAGGAAGUAAAAACAAAUGGAAAUGCUUCGGAUAGUGGCAGGGGUGGGGGUUGCUAAGGAAAGGGUGGGAUGCGAGUGGGUAAAGAGUU,0.782
GCAGGAAGUAAAAACAAAUGGAAAUGCUUCGGAUAGUGGCAGGGGUGGGGGUGGCUAAGGAAAGGGUGGGAUGGGAGUGGGUAAAGAGUU,0.719
CAAGUCCUGUGCUACACAUCGUAUGUACCGAAUCGGGGCCCGGGGCCCGGCCCGGGAAAGUAUUAUGUUACGCCGUUCGGAUCUGCACUU,-0.725
CCUCAAGUCCUGUGCUACACAUCGUAUGUACCGAAUCGGCCGGGGCCGGCCGGAAAGUAUUAUGUUACGCCGUUCGGAUCUGCACUUCCA,-0.447
UCAAGUCCUGUGCUACACAUCGUAUGUACCGAAUCGGGAGGGAGGGAAAAAGGGAAAGUAUUAUGUUACGCCGUUCGGAUCUGCACUUCC,1.01

# Series 2 — target: CCNB3, cyclin fold, Cln2 fusion (human); method: yeast growth competition, sequencing; matrix: yeast; setting: strong parent motif; reference: not given; direction: higher = stronger binding
# Starting sequence: RBL2 docking peptide (human); STTRRRLFVENDS; partner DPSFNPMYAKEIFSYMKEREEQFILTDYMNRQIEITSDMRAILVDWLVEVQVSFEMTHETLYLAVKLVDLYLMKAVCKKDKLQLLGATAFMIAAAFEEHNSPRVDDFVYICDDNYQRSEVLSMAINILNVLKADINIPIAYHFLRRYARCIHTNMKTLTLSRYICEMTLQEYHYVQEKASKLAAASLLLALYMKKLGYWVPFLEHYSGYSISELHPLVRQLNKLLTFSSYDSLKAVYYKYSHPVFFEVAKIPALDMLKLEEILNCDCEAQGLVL
Substitution,normalised enrichment score
D12H,0.331
V9L,0.706
T2I,-0.175
R4D,-0.525
T3G,0.701
R5I,0.115
T3L,0.712
L7P,0.411
N11G,0.98
F8H,-0.0767
F8E,0.108
R6Q,0.433
R6Y,0.163
E10I,0.0206
R5F,0.192
S1G,1.13
R4L,0.845
L7G,-0.531
T3N,-0.294
R4I,0.443
D12T,0.437
E10S,0.905
R4N,-0.495
L7K,-0.292
R6K,1.58

# Series 3 — method: protein binding microarray; molecule type: double-stranded DNA, one strand shown; matrix: in vitro; concentration: not given; reference: not given; direction: higher = stronger binding
# Target: Histone acetyltransferase KAT6A, winged helix 1, GST fusion (KAT6A, Homo sapiens, UniProt Q92794, residues 1-85)
# Setting: 8-mer, flanks averaged, mean of 2 arrays, mostly near background
# Construct (chain): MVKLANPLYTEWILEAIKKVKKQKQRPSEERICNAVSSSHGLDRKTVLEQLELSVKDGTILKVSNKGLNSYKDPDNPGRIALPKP
Oligonucleotide,E-score
CTCACAAG,-0.211
GCCGTGAA,0.405
ATCTGAAG,-0.179
ATCAGTGA,-0.198
GGCTATCA,0.0719
CAAATACA,-0.282
CCCTCCGC,0.133
GGCAGCTA,0.0377
CCATGTAG,0.00852
CCTCAGCC,-0.146
TGAGAACA,-0.172
CGCGTAGA,0.232
GCCTAGGA,-0.218
AGGGGCAG,-0.171
CTGACCTA,-0.155
CGCGCCTA,0.38
CTCCGAAG,-0.0349
AAATGCTG,-0.365
ACCGAGAG,-0.0432
CTGCGTAC,0.0876

# Series 4 — method: RNA Bind-n-Seq; molecule type: RNA; matrix: in vitro; concentration: not given; setting: RNA with constant flanks, ends assumed; reference: input RNA pool; direction: higher = stronger binding
# Target: RING finger protein unkempt homolog, zinc fingers 1-6, GST-SBP tag (UNK, Homo sapiens, UniProt Q9C0B0, residues 30-357)
# All sequences stand within: GGGAGUUCUACAGUCCGACGAUC … CAACAGAGGAUUGAGCAUCA
# Target sequence (chain): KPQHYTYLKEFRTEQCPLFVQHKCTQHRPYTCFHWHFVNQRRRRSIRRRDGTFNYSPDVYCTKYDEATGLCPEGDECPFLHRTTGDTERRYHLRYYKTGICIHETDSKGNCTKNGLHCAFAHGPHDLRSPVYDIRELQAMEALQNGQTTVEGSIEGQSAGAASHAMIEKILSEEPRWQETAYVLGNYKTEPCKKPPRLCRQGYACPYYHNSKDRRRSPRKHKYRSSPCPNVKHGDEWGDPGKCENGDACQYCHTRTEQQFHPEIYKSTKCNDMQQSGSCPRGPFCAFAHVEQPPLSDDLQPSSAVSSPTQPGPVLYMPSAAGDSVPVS
Oligonucleotide,bound/input enrichment [ratio]
CUUCAAACCCCAGCUUCCACUUUCCUUGCCAUCUUCCCUCCUGGGCAUUGUUUUGCUGUCAUCCGAAGGAAACCAUUUUUUUUUUUCCCAAUUUACCCUGUUUAACCUGUGAGAGUCUCU,0.966
UUUUCUGUAUUAAGCAAAUUCUAAUUUUUAUAUGUGGUUUUUGACUGUGGGGGUUGUCUCUACCGUUUGUCUUACUGUUGAAAUGACAUGGUUAUCCAAAGCCUCUAGUGUCCGUCAGGU,1.1
ACCCUGGACUGUGAGCCCAAGUGUGUGGAAGAGUUACCUGAGUGGAACUUUGAUGGCUCCCGUACCUUUCAGUCUGAAGGCUCCAACAGCGACAUGUACCUCCAUCCUGUUGCCAUGUUU,0.215
GGAUCCAGUCUUGGUGGAUGGCUCAUGCUGCAUGCUGCAAUUGCACGGCCGGAAAAAGUCACCGCUCUUAUUGGUAUAGCUACUGCUGCAGAUGGAUUGGUGACACAAUAUCAUGCACUU,0.207
CUACCUAACCCUUUCUUAUUUGUAUUUGUUUUAGUAUUGUGAAGUUGUGUUAAAUAGUACCCGCCCGAAAUACAAAUUUCUGGUUAUCAUUUCUCUUCCCUGUGGCACUUGACAUUUUAA,2.72
AUCAAUGUGAAGAAGGGGAGCAUCUCGGGGAUUACCAUGGUGCUGGCAUGCUACGUGCUCUUCCGCUACUCCUUUUCCUACAAGCAUCUCAAGCACGAGCGGCUCCGCAAAUACCACUGA,0.16
UCAUUGUAAAUUACCUUUGUGUGUACAUUUUUACUGUAUUUGAGACAUUUUUUGUGUGUGACCCGUUAAUUUUGCAGGAUGUGCCAUAUCAUUGAACGGAACUAAAGUCUGUGACAGUGG,0.303
UUAUGGUGCACUUUUUCGCUAUUUAAGUUGGAUAUUUCUCUACAUUCCUGAAACAAUUUUCCGGUUUUUUUUGUACUAGAAAAUGCAGGCAGUGUUUUCACAAAAGUAAAUGUACAGUGA,0.156
CUGCCCUAGAAUUGUUAUGUUGGGCAUCACAGUCAUGAACUUUUGUUUUUCUCCCUUUUUCCGUUUUUUCAAAGAUGGGGGGAAGGGAAAUAUGAGCCUUUGUUGCUUUCAAAACGAGAA,0.227
GGAGUCGGGAGGCCUGAGUGUUCCUUCCAGCAUGUCGGAGGGGGAGUCCCAGACAGUACUCCGCAGUGGCUCAGACCCAAAGGUAGAAUCCUCAUCUUCAGCUCCUGGCCUGACAUCAGU,0.095
GAGGAAGAGGAGGAGGAGAGCCCCGACACAGGUGGAGAAUAUAAAUAUUCAGGAAGAGACCGCUUGAUUUUUCUGGUUGAUGCCUCCAGGGCUAUGUUCGAAUCUCAGGGUGAAGAUGAA,0.261

# Series 5 — method: universal PBM; molecule type: double-stranded DNA, one strand shown; matrix: in vitro; concentration: not given; direction: higher = stronger binding
# Target: Sal-like protein 4, full length isoform B (SALL4, Homo sapiens, UniProt Q9UJQ4-2, residues 1-616)
# Setting: 8-mer, flanks averaged, mean of replicates
# Construct (chain): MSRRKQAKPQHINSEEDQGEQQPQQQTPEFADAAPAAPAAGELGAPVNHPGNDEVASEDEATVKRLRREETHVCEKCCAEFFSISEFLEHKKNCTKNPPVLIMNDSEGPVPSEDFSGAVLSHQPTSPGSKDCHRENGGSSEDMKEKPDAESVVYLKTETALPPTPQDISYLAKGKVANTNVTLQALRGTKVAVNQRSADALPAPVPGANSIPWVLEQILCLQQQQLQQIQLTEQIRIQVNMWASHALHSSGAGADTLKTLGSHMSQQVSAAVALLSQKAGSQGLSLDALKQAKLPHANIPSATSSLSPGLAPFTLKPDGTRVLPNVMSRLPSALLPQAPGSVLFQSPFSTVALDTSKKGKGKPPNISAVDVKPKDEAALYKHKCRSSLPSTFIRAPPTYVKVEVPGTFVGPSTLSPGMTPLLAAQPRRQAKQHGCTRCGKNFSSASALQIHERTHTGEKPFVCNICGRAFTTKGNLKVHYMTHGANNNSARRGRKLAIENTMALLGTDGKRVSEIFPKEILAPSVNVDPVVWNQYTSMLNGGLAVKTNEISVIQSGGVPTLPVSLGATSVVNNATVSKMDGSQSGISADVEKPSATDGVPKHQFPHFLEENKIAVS
Oligonucleotide,E-score
GAATACAA,0.261
ATTATACG,0.281
CTCTAGGA,-0.182
ATAATCGC,0.239
AAAGGACG,0.0402
AAATAGGG,0.185
AACGCGTC,-0.146
AAAACGAA,0.163
AGCCCATC,-0.212
ACAAGCCC,-0.205
CCTTATGA,0.127
CTGGTAGC,-0.211
CAACGAGC,-0.248
GACTCCAA,-0.151
CTTTATCA,0.241
AAGTATAC,0.303
ATAAAGTA,0.345
ATGATTCC,0.244
CCCTACTA,-0.0906
ACTATAGC,0.025
AGATCAAC,0.0319
CTGCAAGC,-0.22
CTACAGCA,-0.0909
CCTCAGTC,-0.218
ATCCTATC,0.179

# Repeated from above (series 4):
Oligonucleotide,bound/input enrichment [ratio]
CUUCAAACCCCAGCUUCCACUUUCCUUGCCAUCUUCCCUCCUGGGCAUUGUUUUGCUGUCAUCCGAAGGAAACCAUUUUUUUUUUUCCCAAUUUACCCUGUUUAACCUGUGAGAGUCUCU,0.966
UUUUCUGUAUUAAGCAAAUUCUAAUUUUUAUAUGUGGUUUUUGACUGUGGGGGUUGUCUCUACCGUUUGUCUUACUGUUGAAAUGACAUGGUUAUCCAAAGCCUCUAGUGUCCGUCAGGU,1.1
ACCCUGGACUGUGAGCCCAAGUGUGUGGAAGAGUUACCUGAGUGGAACUUUGAUGGCUCCCGUACCUUUCAGUCUGAAGGCUCCAACAGCGACAUGUACCUCCAUCCUGUUGCCAUGUUU,0.215
GGAUCCAGUCUUGGUGGAUGGCUCAUGCUGCAUGCUGCAAUUGCACGGCCGGAAAAAGUCACCGCUCUUAUUGGUAUAGCUACUGCUGCAGAUGGAUUGGUGACACAAUAUCAUGCACUU,0.207
CUACCUAACCCUUUCUUAUUUGUAUUUGUUUUAGUAUUGUGAAGUUGUGUUAAAUAGUACCCGCCCGAAAUACAAAUUUCUGGUUAUCAUUUCUCUUCCCUGUGGCACUUGACAUUUUAA,2.72
AUCAAUGUGAAGAAGGGGAGCAUCUCGGGGAUUACCAUGGUGCUGGCAUGCUACGUGCUCUUCCGCUACUCCUUUUCCUACAAGCAUCUCAAGCACGAGCGGCUCCGCAAAUACCACUGA,0.16
UCAUUGUAAAUUACCUUUGUGUGUACAUUUUUACUGUAUUUGAGACAUUUUUUGUGUGUGACCCGUUAAUUUUGCAGGAUGUGCCAUAUCAUUGAACGGAACUAAAGUCUGUGACAGUGG,0.303
UUAUGGUGCACUUUUUCGCUAUUUAAGUUGGAUAUUUCUCUACAUUCCUGAAACAAUUUUCCGGUUUUUUUUGUACUAGAAAAUGCAGGCAGUGUUUUCACAAAAGUAAAUGUACAGUGA,0.156
CUGCCCUAGAAUUGUUAUGUUGGGCAUCACAGUCAUGAACUUUUGUUUUUCUCCCUUUUUCCGUUUUUUCAAAGAUGGGGGGAAGGGAAAUAUGAGCCUUUGUUGCUUUCAAAACGAGAA,0.227
